Earlier results, collected from citations in different studies.
Converted amounts (≈) assume the structure as drawn.
Sequence of UniProt Q99683 (whole entry, looked up): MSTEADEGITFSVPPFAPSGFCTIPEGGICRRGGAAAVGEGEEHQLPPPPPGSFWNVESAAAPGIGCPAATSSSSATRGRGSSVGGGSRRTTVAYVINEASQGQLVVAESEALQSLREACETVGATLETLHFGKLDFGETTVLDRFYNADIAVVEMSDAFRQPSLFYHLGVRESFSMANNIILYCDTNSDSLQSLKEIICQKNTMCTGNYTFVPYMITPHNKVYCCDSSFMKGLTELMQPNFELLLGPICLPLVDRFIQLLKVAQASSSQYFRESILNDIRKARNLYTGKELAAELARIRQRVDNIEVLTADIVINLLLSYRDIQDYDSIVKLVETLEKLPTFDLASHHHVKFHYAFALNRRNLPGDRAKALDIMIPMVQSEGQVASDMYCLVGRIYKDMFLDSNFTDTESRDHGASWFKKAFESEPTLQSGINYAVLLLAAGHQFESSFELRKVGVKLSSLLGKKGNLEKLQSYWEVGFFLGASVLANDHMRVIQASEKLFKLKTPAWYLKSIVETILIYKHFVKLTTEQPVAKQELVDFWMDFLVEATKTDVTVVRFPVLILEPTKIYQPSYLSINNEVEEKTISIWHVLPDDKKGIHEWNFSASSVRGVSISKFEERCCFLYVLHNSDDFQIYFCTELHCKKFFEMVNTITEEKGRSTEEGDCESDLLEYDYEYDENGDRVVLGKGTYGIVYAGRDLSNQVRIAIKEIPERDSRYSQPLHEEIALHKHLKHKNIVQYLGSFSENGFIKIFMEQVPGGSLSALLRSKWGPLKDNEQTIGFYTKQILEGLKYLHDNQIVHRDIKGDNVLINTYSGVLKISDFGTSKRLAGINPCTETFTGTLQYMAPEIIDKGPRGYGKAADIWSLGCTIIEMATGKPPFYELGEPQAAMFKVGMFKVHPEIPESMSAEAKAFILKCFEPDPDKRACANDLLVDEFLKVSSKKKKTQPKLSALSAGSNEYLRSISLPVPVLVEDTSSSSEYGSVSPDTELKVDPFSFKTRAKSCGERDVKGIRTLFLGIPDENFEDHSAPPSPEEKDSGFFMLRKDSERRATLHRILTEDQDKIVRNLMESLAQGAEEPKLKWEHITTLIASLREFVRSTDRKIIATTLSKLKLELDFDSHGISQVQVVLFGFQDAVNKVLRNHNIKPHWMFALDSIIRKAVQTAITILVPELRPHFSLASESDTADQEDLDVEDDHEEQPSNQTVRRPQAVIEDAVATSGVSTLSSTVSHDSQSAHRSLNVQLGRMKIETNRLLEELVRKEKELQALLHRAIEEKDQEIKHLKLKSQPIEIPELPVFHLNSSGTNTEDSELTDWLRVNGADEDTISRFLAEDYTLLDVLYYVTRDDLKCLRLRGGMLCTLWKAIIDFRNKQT

SMILES	tested on	test	system	setting	scale	endpoint	value
CCc1cc(F)c(Cc2cnc(Nc3ccc(C#N)c(Cl)c3)o2)c(F)c1	HIV-1	viral replication	MT2 cells, IIIB wild type			EC50	1 nM
C#C[C@]1(CO)O[C@@H](n2cnc3c(N)nc(F)nc32)C[C@@H]1O	HIV-1		treatment-naive HIV-positive humans	1 to 30 mg, average over doses		viral load reduction	> 1 log
CC(C)(C#Cc1ccc(-c2ccc(Cl)c3c(NS(C)(=O)=O)nn(CC(F)(F)F)c23)c([C@H](Cc2cc(F)cc(F)c2)NC(=O)Cn2nc(C(F)(F)F)c3c2C(F)(F)[C@@H]2C[C@H]32)n1)S(C)(=O)=O	HIV-1	viral replication	wild type			EC50	0.13 nM
N#C/C=C/c1ccc2c(S(=O)(=O)n3nc(Nc4ccc(C#N)c(Cl)c4)nc3N)cccc2c1	HIV-1	viral replication	TZM-bl, IIIB wild type			EC50	0.24 nM
CC1(C)S[C@@H]2[C@H](NC(=O)[C@H](N)c3ccccc3)C(=O)N2[C@H]1C(=O)O	Enterobacter cloacae		clinical isolate RKI-No_33/16			MIC	> 16 µg/mL
Nc1cc(C(F)(F)F)c(-c2nc(N3CCOCC3)nc(N3CCOCC3)n2)cn1	MAP3K5 (Homo sapiens, UniProt Q99683)	enzyme activity		10 µM	reference: untreated	remaining activity	55%
CC(C)CN(C[C@@H](O)[C@H](Cc1ccccc1)NC(=O)O[C@H]1CO[C@H]2OCC[C@H]21)S(=O)(=O)c1ccc(C(=O)O)cc1	HIV-1	viral replication, inhibitor	MT-2, LAI			IC50	> 1000 nM
Cn1c(Cn2ccc(C(F)(F)F)c(Oc3cc(Cl)cc(C#N)c3)c2=O)n[nH]c1=O	HIV-1	viral replication	wild type	50% human serum		EC95	20 nM
CNC(C)C1CCC(N)C(OC2C(N)CC(N)C(OC3OCC(C)(O)C(NC)C3O)C2O)O1 (centres unmarked)	Enterobacter cloacae		clinical isolate RKI-No_34/16			MIC	4 µg/mL (≈ 8.38 µM)
[N-]=[N+]=N[C@]1(CO)O[C@@H](n2ccc(N)nc2=O)[C@@H](F)[C@@H]1O	HIV-1	viral replication	C8166			EC50	30 to 370 nM
O=C(NCc1c(F)cc(F)cc1F)c1cn2c(c(O)c1=O)C(=O)N1[C@H]3CC[C@H](C3)O[C@@H]1C2	HIV-1					paEC95	0.162 µg/mL

For quick reference, copied from above:
SMILES	tested on	test	system	setting	scale	endpoint	value
CC(C)CN(C[C@@H](O)[C@H](Cc1ccccc1)NC(=O)O[C@H]1CO[C@H]2OCC[C@H]21)S(=O)(=O)c1ccc(C(=O)O)cc1	HIV-1	viral replication, inhibitor	MT-2, LAI			IC50	> 1000 nM
